Measurements from different studies.
Each numbered part is a random draw from the data of one study; scales do not carry over between parts.

Series 1 — technique: protein binding microarray; molecule type: double-stranded DNA, one strand shown; matrix: in vitro; tested at: not given; baseline: not given; direction: higher = stronger binding; measurement: E-score
Target: Histone acetyltransferase KAT6A, winged helix 2, GST fusion (KAT6A, Homo sapiens, UniProt Q92794, residues 85-181)
Setting: 8-mer, flanks averaged, mean of 2 arrays, mostly near background
Residues (chain): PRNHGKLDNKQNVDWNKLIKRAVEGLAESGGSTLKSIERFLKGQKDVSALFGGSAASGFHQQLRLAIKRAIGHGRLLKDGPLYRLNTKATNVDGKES
AGCGATGA: 0.154
GCCAAACC: -0.013
AGCATCCG: 0.138
AGTCGTCA: -0.19
GGACACGA: 0.00953
CCCTCCAC: 0.137
CTCTCGCC: 0.0634
AGCACGAG: 0.163
CCATAGAA: 0.0373
CCAAGATC: 0.0423
GGCCAGGA: -0.0239
ACGGCCCT: -0.0654
GATCCAGC: -0.0631
AACCTCAG: -0.0795
ATTATGGG: -0.147
TAATTTAA: 0.145
CTCCGTAC: -0.18
CTTTAGTA: -0.0405
GGGAAAGA: 0.109
ATCTCCAT: -0.0505
CCACTGCC: 0.135
TTAACAAA: 0.0487

Series 2 — technique: RNA Bind-n-Seq; molecule type: RNA; matrix: in vitro; tested at: 1 µM; setting: whole 134-nt RNA, ends assumed; together with: 150 mM KCl; baseline: input library; direction: higher = stronger binding; measurement: log2 enrichment
Target: Ras GTPase-activating protein-binding protein 1, C-terminal RGG region (G3BP1, Homo sapiens, UniProt Q13283)
Chain of UniProt Q13283 (whole entry, looked up): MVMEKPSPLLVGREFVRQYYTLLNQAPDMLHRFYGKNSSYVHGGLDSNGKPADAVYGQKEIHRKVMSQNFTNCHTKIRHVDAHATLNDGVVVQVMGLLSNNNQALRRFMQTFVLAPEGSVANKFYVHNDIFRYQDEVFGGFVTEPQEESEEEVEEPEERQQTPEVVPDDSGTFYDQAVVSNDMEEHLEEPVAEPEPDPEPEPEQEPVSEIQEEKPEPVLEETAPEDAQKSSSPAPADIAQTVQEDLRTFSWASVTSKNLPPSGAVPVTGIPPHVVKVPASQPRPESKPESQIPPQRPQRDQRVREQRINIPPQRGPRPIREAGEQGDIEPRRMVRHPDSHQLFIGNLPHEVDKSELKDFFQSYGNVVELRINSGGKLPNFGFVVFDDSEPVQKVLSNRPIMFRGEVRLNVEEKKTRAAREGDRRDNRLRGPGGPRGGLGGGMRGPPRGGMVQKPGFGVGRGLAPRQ
All sequences stand within: GGGAGUUCUACAGUCCGACGAUC … UGGAAUUCUCGGGUGUCAAGG
UGUCCCUGACUCUCCAUUUCCCCAUCUGAGUGGAUUUGGACCUAAUAGGGCACUGGAGCUGGUUCGAAUCCUGACUGGACUACUUGGCAA: 0.0244
CUGUGCUACACAUCGUAUGUACCGAAUCGGGGCCCCCCCGGGGCCCCCCCGGCCCCCCCGGAAAGUAUUAUGUUACGCCGUUCGGAUCUG: -1.67
CACAGACAACACGCACCCACACAGACACAGAGGGAAGGGGUUGGGAUGGGGAAAAGGUGCACAGCAGGGCGGGGUAGGACCCCAGCCCCU: -0.273
AGUCCUGUGCUACACAUCGUAUGUACCGAAUCGGAAAAAGGGAAAAAGGGAAAAAGGGAAAGUAUUAUGUUACGCCGUUCGGAUCUGCAC: -1.72
GUCCUGUGCUACACAUCGUAUGUACCGAAUCGGGAAAAGGGGAAAAGGGGAAAAGGGGAAAGUAUUAUGUUACGCCGUUCGGAUCUGCAC: 0.442
AAGUCCUGUGCUACACAUCGUAUGUACCGAAUCGGGUGGGUUUUUGGGUUUUUGGGAAAGUAUUAUGUUACGCCGUUCGGAUCUGCACUU: -0.147
UGGGUGGUGGAUUUUGUUUAUUUUUUUAGCUCAUUUCCAGGGGUGGGAAUUUUUUUUUAAUAUGUGUCAUGAAUAAAGUUGUUUUUGAAA: 3.04
UAACUUUAGAGGAGGAUCUGAUGGAUAUGGUAGUGGACGUGGAUUUGGGGAUGGCUAUAAUGGGUAUGGAGGAGGACCUGGAGGUGGCAA: -1.32
CACAGACAACACGCCCCCACACAGACACAGAGGGAAGGGGUUGGGAUGGGGACAGGGUGCACAGCAGGGCGGGGUAGGACCCCAGCCCCU: -0.41
CUGUGCUACACAUCGUAUGUACCGAAUCGGGCCCCCCCGGGGCCCCCCCGGGGCCCCCCCGGAAAGUAUUAUGUUACGCCGUUCGGAUCU: -1.93
AGUCCUGUGCUACACAUCGUAUGUACCGAAUCGGGGUUUUUGGGGAGGGGUUUGGGGAAAGUAUUAUGUUACGCCGUUCGGAUCUGCACU: 1.81
AAGUCCUGUGCUACACAUCGUAUGUACCGAAUCGGGAAAGGGGAAAGGGAAAGGGGAAAGUAUUAUGUUACGCCGUUCGGAUCUGCACUU: 1.27
GAUUCCCUCCACAUGCUGCACGCGCAUCUCGCCCCCAGGGGCACUGCCUGGAAGAUUCAGGAGCCUGGGCGGCCUUCGCUUACUCUCACC: 0.102
UGGCCCUGGUGGCAUGCGGGGAGGAAGAGGUGGCCUCAUGGAUCGUGGUGGUCCCGGAGGAAUGUUCAGAGGUGGCCGUGGUGGAGACAG: 1.75

Series 3 — organism: Saccharomyces cerevisiae; observed: binding; technique: yeast competitive growth sequencing; molecule type: peptide; strain: cyclin D1-Cln2 strain; matrix: peptide tiling library; direction: direction not given; measurement: enrichment score
ELGMEHCEKFEISETS: 1.74
FREFEVEKQTAEETGL: 1.3
DSGFCLDSPGPLDSKE: 2.3
DSDSDSEGGAAGGEAD: 2.33
TLPYDLACTGGDFVLF: 2.59
NLEPNAEFDKRTEFIT: 1.54
LFVPQRKLEVSTEDVH: -0.701
SGYLTDENEVGFRG: 1.56
RRRRLLFWDKETQI: -2.34
IPDRSTKPVVFSPT: 2.58
VKTKKRLNFDDK: -0.377
TQERKQIHCLSEDELS: 1.58
HRRRLLFACSPPPASQ: -1.59
NCKKRRALDFLSRLPL: -1.85
VEEEFFALRKRTPSAG: 1.22

Series 4 — technique: aptamer microarray, sandwich; molecule type: DNA with 2'F-ANA; matrix: in vitro; tested at: 200 nM; together with: Cy3 exosite-II aptamer, 400 nM; direction: higher = stronger binding; measurement: mean fluorescence intensity; strand: GGTTGGTGTGGTTGG
Target: Prothrombin, mature alpha-thrombin (F2, Homo sapiens, UniProt P00734)
Setting: whole 15-mer aptamer, many near background
2'F-ANA at 2 4 5 9 11 13 15: 59.3 a.u.
2'F-ANA at 2 3 4 8 10 11: 234 a.u.
2'F-ANA at 1 2 3 4 7 8 9 13 14 15: 61.1 a.u.
2'F-ANA at 1 2 3 5 6 8 9 11 12 14: 50 a.u.
2'F-ANA at 3 7 8 9 11 12: 1430 a.u.
2'F-ANA at 1 2 3 5 8 10 15: 47.2 a.u.
2'F-ANA at 2 7 11 13 14 15: 132 a.u.
2'F-ANA at 3 5 8 13: 103 a.u.
2'F-ANA at 1 2 3 5 6 8 9 15: 95.9 a.u.
2'F-ANA at 2 3 5 6 8 9 10 13 14 15: 50.2 a.u.
2'F-ANA at 1 3 6 7 8 9 12 13 14 15: 115 a.u.
2'F-ANA at 1 2 3 4 6 8 10 11 14: 52.6 a.u.
2'F-ANA at 5 6 8 9 10 11 14: 48.2 a.u.
2'F-ANA at 2 4 5 7 9 12 13: 80.3 a.u.
2'F-ANA at 8 9 10: 219 a.u.
2'F-ANA at 2 3 6 7 9 10 12: 372 a.u.
2'F-ANA at 1 2 8 12 13: 323 a.u.
2'F-ANA at 1 2 3 6 7 8 10 13: 60.9 a.u.
2'F-ANA at 1 2 5 6 7 8 9 10 11 13 14 15: 52.9 a.u.
2'F-ANA at 3 8 9: 1220 a.u.
2'F-ANA at 1 3 4 7 8: 285 a.u.
2'F-ANA at 1 2 3 4 5 7 8 11 12 13: 87.2 a.u.
2'F-ANA at 1 12 13 15: 378 a.u.
2'F-ANA at 3 7 8 9 13 14 15: 671 a.u.
2'F-ANA at 1 3 5 6 7 9 13 14: 45.7 a.u.

Series 5 — technique: RNA Bind-n-Seq; molecule type: RNA; matrix: in vitro; tested at: 365 nM; baseline: no-protein control; direction: higher = stronger binding; measurement: RBNS enrichment (R)
Target: RNA binding protein fox-1 homolog 2, RRM domain, GST-SBP tag (RBFOX2, Homo sapiens, UniProt O43251-10, residues 100-194)
Setting: natural RNA segment, single round, ends assumed
All sequences stand within: GGGAGUUCUACAGUCCGACGAUC … UGGAAUUCUCGGGUGCCAA
Target sequence (chain): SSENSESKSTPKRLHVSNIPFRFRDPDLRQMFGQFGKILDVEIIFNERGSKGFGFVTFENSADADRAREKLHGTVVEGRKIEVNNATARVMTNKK
UUAGAGUUGAUAAGGGUUUAUAUCUCAUCUGUCCAUAUUGUUUGCAAAGGAACAAGGUUUUAUGUAGGUGAGAGAAAGCAUUUGUACGAAGUUAGAUUUGAACAUAGAUA: 0.467
CCCUCUCAGACCCACGCUCGCUCAGAGGCUCGUUGCUGGGCUGGCUUUGAGGGGCUGCUCUUCUCAUCUGGUGCCAAAAGUUCAUUUGCAGCUUCUACAACAAUCCCCAC: 0.447
GAUCAUUUAAGUAAUAGUUAGUAAUCACGUAAAUACACCCGGACAGAAAUAUAAUGUCUGGAUCUACUUCAUUCUUACAUCAACAUUCACUUUAAAAUCUAUCGAAGCUC: 0.289
UAACCAUUAGUACUUACUGUGCAGGGAACCAAACCAAGGUCUGAGAAAUGCGGACACCCCGAGCGAGCACCCCAAAGUGCACAAAGCUGAGUAAAAAGCUGCCCCCUUCA: 0.225
GAUGUUUGCUCCAUAAACUCCACAGUCACUGUUUUCACAUUAAACAUGAAAGCAAAGCAAAACAAAACUUUGUUCGAUUUCUUACUUUACAUAGGAGAAUAUAUUUCCUC: 0.791
UUACAUUUGUUUUAUUGUACAUAGGUUUGUAAACAUUAUUGCCUAAGAUAUUUGUAUAUAACUUGGGCUUUGUAGCUUUUAUUUAUUCAGACUCAUAUGGCAUGUUAAUU: 1.82
CUUCCUCCAUCUGAGAAGUGGCCCAUGUGCUUCAAGGCCCAGGAGGGAGAUCUGUCAGCUCAUUCUUGCCUUACUCCAAUGAUGGCCCAGGUGGAAAAGUAGCAGCUGUA: 0.44
GCCCUGUCCCUGCUCAGAGAACAGAUCCGGAGCAGGUGGUCUGGUCAGUCAGGAUGGAACAGUGCUACAAGCACCAGCCUGCCUCUGAGCAGUGCUCGGAACAGCUGAGG: 0.28
CCAGAGUCCAGACUGACAUUACAGCGCAAGAGUUUGCAAGUGUGUCCAGCAUGCACCAACUGUGCAGAACUUGGCUCGGUAACUUUGCGUGGAAAAAUAAAGUACAUUUU: 0.614
ACUGCUCCCUGUGAAAUUCUGAAGGUGUUUCUUAGUGGAUUAUCGUAAAUCACUGAACCUUUUUUUCAAGAAGGACAAGAAUUUUGGAGUCUGCUAUUAAUGGACCAUAU: 0.261
AAAAAGUUUGUGACAUUGUAGUAGGGAGUGUGUACCCCUUACUCCCCAUCAAAAAAAAAAAUGGAUACAUGGUUAAAGGAUAGAAGGGCAAUAUUUUAUCAUAUGUUCUA: 0.603
UCACUUGAUUGAGCAUAUUGAUUUGAAAGAGCUAAGAUUUUCCUGCUUAAUGUCAGCCAUUGGCUCUCCUGAUAAUUGGGACUUUUUGUUUGUUUGUUUUUUGUUGUUUU: 6.17

Series 6 — technique: universal PBM; molecule type: double-stranded DNA, one strand shown; matrix: in vitro; tested at: not given; direction: higher = stronger binding; measurement: E-score
Target: Sal-like protein 4, full length isoform B (SALL4, Homo sapiens, UniProt Q9UJQ4-2, residues 1-616)
Setting: 8-mer, flanks averaged, mean of replicates
TCCTTGCA: -0.214
CTGGAAAG: -0.13
GAGGCCTA: -0.256
CTCTGCAA: 0.0461
AGTACCAG: -0.127
CCTCATCG: -0.0522
GCGTTAAC: 0.0369
AACCATGT: 0.0183
AAATCGTT: 0.151
GAGGCTAC: -0.27
TGAGACCA: -0.0752
CTGCTCCA: -0.128
ATTGGCGC: -0.0162
GCGTCTCC: -0.198
AACGAGTA: 0.0983
ATCCCCAT: -0.0901
CCAATCGG: -0.191
GGTCTAAC: -0.157
CTTTGATC: -0.109
CGAGCCCA: -0.224
ACGGAGCG: -0.272
AACCCTCA: -0.00535
AATGGGCG: -0.192
AACTCGTC: -0.123

Repeated from above (series 2):
AGUCCUGUGCUACACAUCGUAUGUACCGAAUCGGAAAAAGGGAAAAAGGGAAAAAGGGAAAGUAUUAUGUUACGCCGUUCGGAUCUGCAC: -1.72
AGUCCUGUGCUACACAUCGUAUGUACCGAAUCGGGGUUUUUGGGGAGGGGUUUGGGGAAAGUAUUAUGUUACGCCGUUCGGAUCUGCACU: 1.81
UGUCCCUGACUCUCCAUUUCCCCAUCUGAGUGGAUUUGGACCUAAUAGGGCACUGGAGCUGGUUCGAAUCCUGACUGGACUACUUGGCAA: 0.0244
GUCCUGUGCUACACAUCGUAUGUACCGAAUCGGGAAAAGGGGAAAAGGGGAAAAGGGGAAAGUAUUAUGUUACGCCGUUCGGAUCUGCAC: 0.442
CACAGACAACACGCACCCACACAGACACAGAGGGAAGGGGUUGGGAUGGGGAAAAGGUGCACAGCAGGGCGGGGUAGGACCCCAGCCCCU: -0.273
CUGUGCUACACAUCGUAUGUACCGAAUCGGGGCCCCCCCGGGGCCCCCCCGGCCCCCCCGGAAAGUAUUAUGUUACGCCGUUCGGAUCUG: -1.67
GAUUCCCUCCACAUGCUGCACGCGCAUCUCGCCCCCAGGGGCACUGCCUGGAAGAUUCAGGAGCCUGGGCGGCCUUCGCUUACUCUCACC: 0.102
UGGGUGGUGGAUUUUGUUUAUUUUUUUAGCUCAUUUCCAGGGGUGGGAAUUUUUUUUUAAUAUGUGUCAUGAAUAAAGUUGUUUUUGAAA: 3.04
